Measured values of several laboratories.
Numbered parts are unrelated; each lists some results of a single study.

Sample 1 — technique: aptamer microarray, sandwich; molecule type: DNA with 2'F-ANA; sample: in vitro; concentration: 200 nM; added: Cy3 exosite-II aptamer, 400 nM; direction: higher = stronger binding; sequence: GGTTGGTGTGGTTGG
Target: Prothrombin, mature alpha-thrombin (F2, Homo sapiens, UniProt P00734)
Setting: whole 15-mer aptamer, many near background
Modification | mean fluorescence intensity
2'F-ANA at 1 3 5 7 9 | 67.4 a.u.
2'F-ANA at 2 3 6 7 8 9 10 11 14 | 251 a.u.
2'F-ANA at 2 4 5 6 7 9 10 11 15 | 50.2 a.u.
2'F-ANA at 1 3 5 6 7 8 9 10 12 13 | 48.8 a.u.
2'F-ANA at 1 3 9 10 13 15 | 79.2 a.u.
2'F-ANA at 2 3 4 6 7 8 9 10 12 14 15 | 160 a.u.
2'F-ANA at 1 3 8 9 11 14 15 | 82.3 a.u.
2'F-ANA at 4 7 9 11 12 14 15 | 106 a.u.
2'F-ANA at 6 7 8 10 12 13 | 174 a.u.
2'F-ANA at 5 6 7 9 13 15 | 52.2 a.u.
2'F-ANA at 1 4 6 9 10 12 13 14 15 | 46.2 a.u.
2'F-ANA at 2 3 4 6 7 9 11 13 15 | 320 a.u.
2'F-ANA at 3 4 6 7 8 9 15 | 608 a.u.
2'F-ANA at 1 2 4 5 7 8 9 10 11 14 15 | 145 a.u.
2'F-ANA at 2 3 5 10 11 14 15 | 64.5 a.u.
2'F-ANA at 1 4 7 9 13 15 | 75.2 a.u.
2'F-ANA at 1 3 4 10 11 12 13 15 | 67.4 a.u.
2'F-ANA at 1 2 3 6 7 8 10 12 13 14 | 53.9 a.u.
2'F-ANA at 2 6 8 10 11 12 13 14 | 88.4 a.u.
2'F-ANA at 1 5 10 11 14 15 | 49 a.u.

Sample 2 — technique: RNA Bind-n-Seq; molecule type: RNA; sample: in vitro; concentration: not given; reference: input RNA pool; direction: higher = stronger binding
Target: RING finger protein unkempt homolog, zinc fingers 1-6, GST-SBP tag (UNK, Homo sapiens, UniProt Q9C0B0, residues 30-357)
Setting: RNA with constant flanks, human and mouse sites, ends assumed
Constant ends, left off below: GGGAGUUCUACAGUCCGACGAUC … CAACAGAGGAUUGAGCAUCA
Target sequence (chain): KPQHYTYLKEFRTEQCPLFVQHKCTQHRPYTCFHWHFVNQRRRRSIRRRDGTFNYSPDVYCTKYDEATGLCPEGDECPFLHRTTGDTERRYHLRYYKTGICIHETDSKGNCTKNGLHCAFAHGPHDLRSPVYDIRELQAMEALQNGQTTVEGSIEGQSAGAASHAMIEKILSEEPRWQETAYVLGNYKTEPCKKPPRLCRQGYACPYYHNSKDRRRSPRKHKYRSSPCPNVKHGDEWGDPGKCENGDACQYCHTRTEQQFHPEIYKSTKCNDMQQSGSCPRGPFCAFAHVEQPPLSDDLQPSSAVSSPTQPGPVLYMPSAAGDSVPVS
Sequence | bound/input enrichment [ratio]
GGCAUGGUCAUCCACCAAGUAGAGGCCAAGCCCUCUGUCUAUUUCAUCAAGUUUGAUGACGAUUUCCAUAUUUACGUCUACGAUUUGGUGAAAACAUCCUAGAUGUCAUCACAAACUUUG | 0.0923
CAGAAAUAGGAUAGCAGGCUUUGAAGUAAAAGCCUAUGCUAACCCUACAGUGGUUCGAUGUGAAAUUCACCAUGGGCAGACUGGAGGAAUAUAUGUCCAUGAAAAAGGAAGAGGACAAUU | 0.223
ACUAUAUGAGUAUGUGUACUGCAUGUUUACAUAAAACAGUUUAAUUUUGAAGGAUUAUUUUAAAAACUAUGUUUAUAUAUAAUACCUAACAAGCUGUAAAUAUUGUAUAUUAUUGAUUUU | 0.485
ACUUUUCCAUGCAGAUUUGUGCACAUGUGAGAGGGUGUCCAGUUUGUCUAGUGAUUGUUAUUUAGAGAGUUGGACCACUAUUGUGUGUUGCUAAUCAUUGACUGUAGUCCCAAAAAAGCC | 0.219
UUAGCAGCCAACGAAGCCCAGCUUCUGAGGAAGAUCCAGCUGUUGUGCCUUAUGGAGAUGACUUUCACACGGCCUGCCAACCACAGACAACUCACUUUUGAAGAAAUUGCCAAAAGUGCC | 0.126
GGAAUUGCAAACUGAUUCAAGUUUGAAUAUCACAAUGUUAGCUUUCUAAUUCCACACAGAUAGUUUUUACAGUUUCUAACCCCACAUCAAUCCAUCACCGUUUAUAAAGAUCAGCUUCCC | 2.68
UUGGCCUCCAACCCCAUCAUGGAGUCAAUUGGAAAUGCCAAAACAACCAGGAAUGAUAAUAGCAGCCGGUUUGGAAAAUAUAUUGAAAUUGGUUUUGACAAGAGGUACAGAAUCAUCGGU | 0.419
CUGGUUGAUGGUGUUAAGAAACUCUCAGUUUGUGUUUCUGAGAAAGGAAGAGAGGAUGGUGAUGCACCGGUUACAAAAGAUGAGACCACCUGCAUUUCACAAGACACAAGAGCUUUAUCG | 0.133
CAUGAAGAACGUAGCAAAAAGAGAAAAAAAAGCAAGAGCAGAAGUCGUAGUCAUGAGAGAAAAAGAAGCAAAAGUAAAGAACGGAAAAGAAGUAGAGAUAGAGAAAGGAAAAAGAGCAAA | 1.95
AAGGAUGCAAGAUCGGAUUCCUGGCAGCUCGUACAGACCCAGUGCCUUCCUUCCUCUUCUAACAGCAUUGGCUGCUCCCCUUUCCAGUUCCAUGAAGCCACCAUCUACAACUCUGUCAAC | 0.275
GAAGGAGACGGCGAGGGUGAGACCUAUUACUACGAAUACCCCUACUACGAAGACCCCGAAGACCUAGGGAAGGAGCCCACCCCCAGCAAGAAGCCCGUGGAAGCUGCCAAAGAAACCACA | 0.218

Sample 3 — technique: RNA Bind-n-Seq; molecule type: RNA; sample: in vitro; concentration: 365 nM; reference: no-protein control; direction: higher = stronger binding
Target: RNA binding protein fox-1 homolog 2, RRM domain, GST-SBP tag (RBFOX2, Homo sapiens, UniProt O43251-10, residues 100-194)
Setting: natural RNA segment, single round, ends assumed
Constant ends, left off below: GGGAGUUCUACAGUCCGACGAUC … UGGAAUUCUCGGGUGCCAA
Construct (chain): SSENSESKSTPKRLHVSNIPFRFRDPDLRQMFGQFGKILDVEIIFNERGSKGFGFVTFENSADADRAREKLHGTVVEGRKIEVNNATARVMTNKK
Sequence | RBNS enrichment (R)
AUCUUUGCUUGCAGCCCUCCGUCCUGCUGAAAACCCCCAUAAGCCAGUGAACACAGAGCAGCUAGAGGCUCCUCCUCUGCUGGCUUAGGGUCAGAAGUACCUCACAGUGG | 1.81
AACAGUAACAGCCCACGGCAGUGUGACCUUCUAAACUUCAGCGAAGUCACUGGUGGCUUUAAAUAACCCAGCGUUGUUCCUCCACACGGCUUUGGUACUCUCUACCUCUU | 0.383
AGUGUAAAUCUACCAGUCAUGGGCCAGAAGGGCAAAAGCCCAGCUUUCUCUUUGGAAAGACUCAGGCUGUGGUUUGUUGAUGGCCAGGUUUUCCUCAGGCUCCAACAACU | 0.284
GCUAGGAGAGCCUGGGCUUCCUCCUUGCGGUGGGGCCAGCCUGCAAAGGGCCACUGACCUGGCAAGCAUUUACUUCUACUUCACCAAAGAUGCCCAGAGUGAUGGGUCAG | 0.673
UACCUUGCCCUCAGCCUAUCCCUGAACUAAACAGGACCCACUGAGUCCCAGCCUCAGCAGGCUGCUUGUCUUCAGUUGAUGGUGGAUUAAUGACAGAAGGAAGCCCCGCC | 0.235
GGUCGGGCUUUCUAAGCUUUGUCAGAUAACUAUUUUUCCUAAGUAUGUGUUUCCUACUCCAGUGAUUGACAAGUGUGCAUUGCCUAUGUUUGUUUAUACUUUAAUUACAA | 0.747
UCCUGCUUAAAACUAUGGAAAACCUAACCUGAUUAGAGCCUUGACUAUUUUGAAGAUUAAAUGCACACUUUUUAUAUAAUGUGACCAGUUUAAAUGUAGUUUGUAUUGUA | 2.66
UGGAAUUCUUUUGUCCAUGUUAAAAAGACUUGAAAACUGAAACGUCACGGUACAGUGUUAAUUCACGCCUGUGUGUGUAACAGGACACUCAGCAAUUAUCUUAAGAACAC | 0.397
AGGCCUCCCACAGGUGUCCCGGCAAGAGAAGACACGGUGGUGGAAGAAGAGGCCUGGUAAUGGCCCCUCCUCCUGGGACCCCUUCGUCCUCUCCUUACCCCACCUCCUGG | 0.197
GUCCAGAAGAGCAAUGGAGGAAGUGACAGCUAAUGUUGCAGUUCUUAUUGUAUGGCAUAGGACUGGCAUUAUAUAGCAGAAAUCAACUACUGUACAAUUUCUUGGGGUUA | 0.398
CUGUUCCCGUCCACAAGCUGAGCCAUAUGUACAUAAGCUAGACUGUUUUCUUAGGUGUGCACUUUUAUAGUCUGUUUUUGAAGAUUAACACAUUUGCAAGGUGAUUGACA | 0.794
AUAGCUCUCUGCCCUGAUGUGUGGGGGAACUAGGAAGAAGUCCUUUGACCUCACCAGGCCUCAUGCUUCCCUUUAAUGUAAAGGGAAGGGGUUUGCCCACUUUCCUCUUU | 0.847

Sample 4 — technique: protein binding microarray; molecule type: double-stranded DNA, one strand shown; sample: in vitro; concentration: not given; reference: not given; direction: higher = stronger binding
Target: Histone acetyltransferase KAT6A, winged helix 2, GST fusion (KAT6A, Homo sapiens, UniProt Q92794, residues 85-181)
Setting: 8-mer, flanks averaged, mean of 2 arrays, mostly near background
Residues (chain): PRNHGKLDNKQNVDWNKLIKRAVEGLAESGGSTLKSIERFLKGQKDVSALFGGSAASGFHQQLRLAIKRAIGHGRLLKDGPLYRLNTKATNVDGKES
Sequence | E-score
CCAGGTCG | -0.07
ACGCCTTG | -0.0285
CCCAAGGA | -0.0892
ACAAGGCG | 0.0339
GATAATCA | 0.0641
GCCTCAAC | 0.207
ACAAAGGC | -0.101
ATATCTAA | -0.0509
CATACGAC | -0.127
ACTGGTAC | -0.143
CCTATATA | -0.181
ACGGGTGG | 0.0458
GCGAAGGA | -0.0303
ACAGAGGA | 0.0255
AGGTTGGC | 0.0456
ATGTACGG | -0.183
CTGTCCTA | -0.0448

A few entries again (sample 2):
Sequence | bound/input enrichment [ratio]
GAAGGAGACGGCGAGGGUGAGACCUAUUACUACGAAUACCCCUACUACGAAGACCCCGAAGACCUAGGGAAGGAGCCCACCCCCAGCAAGAAGCCCGUGGAAGCUGCCAAAGAAACCACA | 0.218
CUGGUUGAUGGUGUUAAGAAACUCUCAGUUUGUGUUUCUGAGAAAGGAAGAGAGGAUGGUGAUGCACCGGUUACAAAAGAUGAGACCACCUGCAUUUCACAAGACACAAGAGCUUUAUCG | 0.133
UUGGCCUCCAACCCCAUCAUGGAGUCAAUUGGAAAUGCCAAAACAACCAGGAAUGAUAAUAGCAGCCGGUUUGGAAAAUAUAUUGAAAUUGGUUUUGACAAGAGGUACAGAAUCAUCGGU | 0.419
ACUAUAUGAGUAUGUGUACUGCAUGUUUACAUAAAACAGUUUAAUUUUGAAGGAUUAUUUUAAAAACUAUGUUUAUAUAUAAUACCUAACAAGCUGUAAAUAUUGUAUAUUAUUGAUUUU | 0.485
